Results from different studies.
A part holds a random share of what one study measured. Positions count from the first letter of the parent shown.

Set 1 — target: UBE2J2 UBC core domain (UniProt Q8N2K1); method: yeast two-hybrid; medium: yeast; notes: mostly zero background; baseline: not given; reading: higher = stronger interaction
B1: VPS8 RING domain (UniProt Q8N3P4); chain TRGLNPKQDYCSICLQQYKRRQEMADEIIVFSCGHLYHSFCLQNKECTVEFEGQTRWTCYKCSSSNKVGKLSE
B2: TRIM11 RING domain (UniProt Q96F44); chain LSTNLQEEATCAICLDYFTDPVMTDCGHNFCRECIRRCWGQPEGPYACPECRELSPQRNLRP
B3: ZNRF4 RING domain (UniProt Q8WWF5); chain VRTFTWHNDLCAICLDEYEEGDQLKILPCSHTYHCKCIDPWFSQAPRRSCPVCKQSVAATEDSF
B4: ZMYND11 RING domain (UniProt Q15326); chain DEIDWETENHDWYCFECHLPGEVLICDLCFRVYHSKCLSDEFRLRDSSSPWQCPVCRSIKKKNTNKQEM
B5: MKRN3 RING domain (UniProt Q13064); chain FAVQRGMDKVCGICMEVVYEKANPNDRRFGILSNCNHSFCIRCIRRWRSARQFENRIVKSCPQCRVTSELVIPSE
B6: RNF186 RING domain (UniProt Q9NXI6); chain HSGSTECDLECLVCREPYSCPRLPKLLACQHAFCAICLKLLLCVQDNTWSITCPLCRKVTAVPGGLI
B7: MID2 RING domain (UniProt Q9UJV3); chain KMETLESELTCPICLELFEDPLLLPCAHSLCFSCAHRILVSSCSSGESIEPITAFQCPTCRYVISLNHRGL
B8: CNOT4 RING domain (UniProt O95628); chain MSRSPDAKEDPVECPLCMEPLEIDDINFFPCTCGYQICRFCWHRIRTDENGLCPACRKPYPED
Residues (chain): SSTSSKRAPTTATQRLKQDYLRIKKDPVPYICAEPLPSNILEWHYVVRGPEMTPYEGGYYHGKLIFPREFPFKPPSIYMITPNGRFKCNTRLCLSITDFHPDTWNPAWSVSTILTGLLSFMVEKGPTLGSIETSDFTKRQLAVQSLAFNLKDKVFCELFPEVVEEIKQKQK
Sequence	lacZ reporter activity
FDPPLESKYECPICLMALREAVQTPCGHRFCKACIIKSIRDAGHKCPVDNEILLENQLFP (TRAF6 RING domain (UniProt Q9Y4K3))	0
LEALSSDFLACKICLEQLRAPKTLPCLHTYCQDCLAQLADGGRVRCPECRETVPVPPEGV (TRIM56 RING domain (UniProt Q9BRZ2))	0
B1 (VPS8 RING domain)	0
B2 (TRIM11 RING domain)	0
B3 (ZNRF4 RING domain)	0
FAEQPSVKLCCQLCCSVFKDPVITTCGHTFCRRCALKSEKCPVDNVKLTVVVNNI (TRAF7 RING domain (UniProt Q6Q0C0))	0
ASEEEFQFLRCQQCQAEAKCPKLLPCLHTLCSGCLEASGMQCPICQAPWPLGADTP (PML RING domain (UniProt P29590))	0
B4 (ZMYND11 RING domain)	0
B5 (MKRN3 RING domain)	0
B6 (RNF186 RING domain)	9100
B7 (MID2 RING domain)	0
B8 (CNOT4 RING domain)	0

Set 2 — method: RNA Bind-n-Seq; form: RNA; medium: in vitro; tested at: 365 nM; baseline: no-protein control; reading: higher = stronger binding
Target: RNA binding protein fox-1 homolog 2, RRM domain, GST-SBP tag (RBFOX2, Homo sapiens, UniProt O43251-10, residues 100-194)
Notes: natural RNA segment, single round, ends assumed
Construct (chain): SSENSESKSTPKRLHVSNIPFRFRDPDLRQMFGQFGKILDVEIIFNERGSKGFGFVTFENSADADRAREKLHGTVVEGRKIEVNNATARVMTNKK
Strand	RBNS enrichment (R)
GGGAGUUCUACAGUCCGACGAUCAAAUAAUAAUAGCCGACGUUUAUUGAGCACUUACUAUGUGCCCAACCCUGUUAUGCCUUUCUCAGGCUCAUGAUAAAUGUAUUAGUCUGUUCUCAUGCUGCUAUUAAAGAUGGAAUUCUCGGGUGCCAA	0.46
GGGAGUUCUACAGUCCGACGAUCUAGGGUAAAGCAAGAAAACUCAAGCUGCAGCUGGACUGCAGGCUUAUUUUGCUUAAGUCAACAGUGCCCUAAAACUCCAAACUCAAAUGCAGUCAAUUAUUCACGCCAUGUGGAAUUCUCGGGUGCCAA	0.289
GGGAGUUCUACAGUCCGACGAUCUGUGGAAGAGAAAGAUGGUCUCCUGAGUUUUUUAAAAUAGCUCACUUGGUGUGAUAUGGCUGACUCCCAUGUCCUUCUUUCUUGGCUGAAGCAAACCAGUUAAUCUCAGUUGGAAUUCUCGGGUGCCAA	0.368
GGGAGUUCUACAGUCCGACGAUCUAACUCACAUCAAUUUCGUUUAAUACAAACUGAUCCUGAAGAGCUGAGGAACUAUGUAAGUUCAGUGUCCAAGCAUUUGACUGACAUUUGUGCAGAGUUAGGUUCCAUCUUGGAAUUCUCGGGUGCCAA	0.278
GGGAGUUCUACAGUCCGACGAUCUUCCUUGGACAGUAGCAACUAGUCAGAAGACCAUCCAAGAUAGAUGCAGCUGAUACAUUCUUUUCAGCUUCUUAUUGAUGAUUGUAGAUAGAAAAAUCCUUGUUUAUUCUUGGAAUUCUCGGGUGCCAA	0.219
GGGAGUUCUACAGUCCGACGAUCAGGAGGGCACCCUAGGCUCUGGGAUCCCGUGUCUUUCCAGACAAUGUUUUGUUUCCUUUCCUUUGUUUUUUCUUUUAACUGGAAUAAUUACCAUUGAAAAAGAAGUUCCUUGGAAUUCUCGGGUGCCAA	0.361
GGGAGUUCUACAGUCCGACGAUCUCCUGCUGCUGUCCCUCUCCUGGUCUCUCACACUGCAUGGCCUCCUAUCACUGUGAAUUGUGGCCUGGUCGCAGUUUGUAGUUUCAUUAAAUGGCCCUUUCACUCCCCUGUGGAAUUCUCGGGUGCCAA	1.18
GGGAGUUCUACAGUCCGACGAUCGCGAUCCGUACUCAGAACGUCCAGGAGAGACGCAUGGCCCGAAGUCAAAGUGCUGGAAUUUUCCAAAACAGCCUGUUCUCUCCUCUCUCCUCCCCAGAGCACCCCCUGCCUGGAAUUCUCGGGUGCCAA	2.3
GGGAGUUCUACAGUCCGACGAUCUGCCCGCCAUGCAUCCUUGAUGUUUGCCGCCUGGCGGCUGAGCCCUUAGCCUCGCUGUAGAGACUUCUGUCGCCCUGGGUAGAGUUUAUUUUUUUGAUGGCUAAGCUGUUUGGAAUUCUCGGGUGCCAA	0.588
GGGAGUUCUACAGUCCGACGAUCUGGCCCACAGCUCCAUGGACUUCUGAGCCGACAGUCUUCCCUUCUCUCCAAGAGGCCUCAGUCCCCAAGACUGCCACCAGUCUACACAUACAGCAGCCCCCUGGACAGAAUGGAAUUCUCGGGUGCCAA	0.302
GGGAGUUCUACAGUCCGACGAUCCGUAAGGGACAUGAAUUCUAGGGUCUCCUUUCUCCUUAUUUAUUCUUGUGGCUACAUCAUCCCUGGCUGUGGAUAGUGCUUUUGUGUAGCAAAUGCUCCCUCCUUAAGGUUGGAAUUCUCGGGUGCCAA	0.624
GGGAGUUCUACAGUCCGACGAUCCUGGAUAGCGAUUAUUUGUGGAAUUGUUGCACAUGCUCCUCUAUUGAAAGGGGUUUUUCCCUAGUCAAGCAUUUGGAGACACUUUUUGUAAAUGUGACUUUUAUGUCAGCUGGAAUUCUCGGGUGCCAA	0.329

Set 3 — method: DHFR PCA, deep sequencing; medium: yeast; added: (+)-ABA 4.8 µM; baseline: wild-type fitted maximum; reading: higher = stronger binding
Target: ABI1, truncated, D143A, DHFR fusion (Arabidopsis thaliana)
Notes: methotrexate growth selection, single substitutions
Parent: PYL1, truncated, DHFR fusion (Arabidopsis thaliana); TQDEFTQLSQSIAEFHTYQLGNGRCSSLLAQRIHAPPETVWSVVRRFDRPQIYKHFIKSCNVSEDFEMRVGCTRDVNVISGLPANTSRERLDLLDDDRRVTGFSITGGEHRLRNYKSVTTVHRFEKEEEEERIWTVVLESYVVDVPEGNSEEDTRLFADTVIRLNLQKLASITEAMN; partner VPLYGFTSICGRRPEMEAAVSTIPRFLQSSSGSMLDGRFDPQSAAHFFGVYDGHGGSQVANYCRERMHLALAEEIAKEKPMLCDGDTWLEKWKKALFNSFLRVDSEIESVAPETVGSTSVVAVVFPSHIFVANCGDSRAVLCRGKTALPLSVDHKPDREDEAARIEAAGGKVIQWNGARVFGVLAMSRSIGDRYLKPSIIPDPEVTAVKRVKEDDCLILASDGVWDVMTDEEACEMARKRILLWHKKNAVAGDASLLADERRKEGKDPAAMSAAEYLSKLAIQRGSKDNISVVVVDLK
Variant	relative binding score [%]
I12E	-11.5
S42K	73.2
I79Y	67.4
G81Y	5.71
M176D	61.3
V137G	4.7
A175Q	82.7
H55W	65.3
V161W	35.6
R49D	-0.151
N165T	-11.3
V136R	1.45
T173C	93.8
R98W	14.1
A30P	1.96

Set 4 — target: CCNA1, cyclin fold, Cln2 fusion (human); method: yeast growth competition, sequencing; medium: yeast; notes: weak parent motif; baseline: not given; reading: higher = stronger binding
Parent: RB1 docking peptide (human); PKPLKKLRFDIEG; partner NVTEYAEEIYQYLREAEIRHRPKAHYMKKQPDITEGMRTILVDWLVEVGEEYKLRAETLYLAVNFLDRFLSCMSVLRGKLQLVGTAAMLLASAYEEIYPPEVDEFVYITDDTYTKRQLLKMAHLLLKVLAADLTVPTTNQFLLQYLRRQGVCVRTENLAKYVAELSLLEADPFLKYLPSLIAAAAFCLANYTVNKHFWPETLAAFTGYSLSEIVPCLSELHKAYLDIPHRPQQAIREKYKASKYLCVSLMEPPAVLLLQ
Variant	normalised enrichment score
F9D	0.299
E12I	0.618
F9W	0.234
I11E	0.418
G13H	0.433
K2D	-0.0019
L4C	0.415
R8E	0.279
G13Q	0.391
L7R	0.172
L4M	0.256
K6R	0.358

A few entries again (set 2):
Strand	RBNS enrichment (R)
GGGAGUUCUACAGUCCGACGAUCGCGAUCCGUACUCAGAACGUCCAGGAGAGACGCAUGGCCCGAAGUCAAAGUGCUGGAAUUUUCCAAAACAGCCUGUUCUCUCCUCUCUCCUCCCCAGAGCACCCCCUGCCUGGAAUUCUCGGGUGCCAA	2.3
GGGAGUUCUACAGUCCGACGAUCUGCCCGCCAUGCAUCCUUGAUGUUUGCCGCCUGGCGGCUGAGCCCUUAGCCUCGCUGUAGAGACUUCUGUCGCCCUGGGUAGAGUUUAUUUUUUUGAUGGCUAAGCUGUUUGGAAUUCUCGGGUGCCAA	0.588
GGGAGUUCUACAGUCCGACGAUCUGGCCCACAGCUCCAUGGACUUCUGAGCCGACAGUCUUCCCUUCUCUCCAAGAGGCCUCAGUCCCCAAGACUGCCACCAGUCUACACAUACAGCAGCCCCCUGGACAGAAUGGAAUUCUCGGGUGCCAA	0.302
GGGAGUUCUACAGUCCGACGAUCCGUAAGGGACAUGAAUUCUAGGGUCUCCUUUCUCCUUAUUUAUUCUUGUGGCUACAUCAUCCCUGGCUGUGGAUAGUGCUUUUGUGUAGCAAAUGCUCCCUCCUUAAGGUUGGAAUUCUCGGGUGCCAA	0.624
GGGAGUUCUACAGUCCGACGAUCCUGGAUAGCGAUUAUUUGUGGAAUUGUUGCACAUGCUCCUCUAUUGAAAGGGGUUUUUCCCUAGUCAAGCAUUUGGAGACACUUUUUGUAAAUGUGACUUUUAUGUCAGCUGGAAUUCUCGGGUGCCAA	0.329
